Assay results collected from several papers.
Numbered parts are unrelated; each lists some results of a single study.

Study 1
Target: Fragile X messenger ribonucleoprotein 1, C-terminal low-complexity region (Fmr1, Mus musculus, UniProt P35922)
Method: RNA Bind-n-Seq
Form: RNA
Matrix: in vitro
Concentration: 200 nM
Setting: whole 134-nt RNA, ends assumed
Together with: 150 mM KCl
Relative to: input library
Direction: higher = stronger binding
Oligonucleotide	log2 enrichment
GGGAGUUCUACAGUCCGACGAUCUCAAGUCCUGUGCUACACAUCGUAUGUACCGAAUCGGGGAGGGGAGGGGUGGGGAAAGUAUUAUGUUACGCCGUUCGGAUCUGCACUUCCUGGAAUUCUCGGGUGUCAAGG	1.22
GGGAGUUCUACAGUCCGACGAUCCCUCAAGUCCUGUGCUACACAUCGUAUGUACCGAAUCGGUUGGGUUGGUUGGGAAAGUAUUAUGUUACGCCGUUCGGAUCUGCACUUCCAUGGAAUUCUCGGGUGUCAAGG	0.0978
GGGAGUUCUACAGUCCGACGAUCUCCUGUGCUACACAUCGUAUGUACCGAAUCGGAAAAAAAGGAAAAAAAGGUUUUUUUGGAAAGUAUUAUGUUACGCCGUUCGGAUCUGCAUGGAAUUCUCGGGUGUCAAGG	-0.536
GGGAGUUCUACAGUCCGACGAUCCACAGACAACACGCACCCACACAGACACAGAGGGAAGGGGGUGGGAUGGGGACAGGGUGCACAGCAGGGCGGGGUAGGACCCCAGCCCCUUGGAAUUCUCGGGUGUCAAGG	1.13
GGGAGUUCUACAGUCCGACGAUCUGGCCCUGGUGGCAUGCGGGGAGGAAGAGGUGGCCUCAUGGAUCGUGGUGGUCCCGGUCGAAUGUUCAGAGGUGGCCGUGGUGGAGACAGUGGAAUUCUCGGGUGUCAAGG	-0.343
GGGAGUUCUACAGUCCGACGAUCUCCUGUGCUACACAUCGUAUGUACCGAAUCGGGUUUUUUUGGGUUUUUGGGUUUUUGGGAAAGUAUUAUGUUACGCCGUUCGGAUCUGCAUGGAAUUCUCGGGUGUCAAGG	0.203
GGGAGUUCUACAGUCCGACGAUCAAGUCCUGUGCUACACAUCGUAUGUACCGAAUCGGAAAAAAAGGAAAGGAAAAAGGAAAGUAUUAUGUUACGCCGUUCGGAUCUGCACUUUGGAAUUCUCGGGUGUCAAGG	-0.909
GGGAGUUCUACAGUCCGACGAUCCUGUGCUACACAUCGUAUGUACCGAAUCAAAUUUUUUUAAACCCCCCCAAAUUUUUUUAAAAAAGUAUUAUGUUACGCCGUUCGGAUCUGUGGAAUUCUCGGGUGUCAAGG	-0.346
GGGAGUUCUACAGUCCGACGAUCUGGCCCUGGUGGCAUGCGGGGAGGAAGAGGUGGCCUCAUGGAUCGUGGUGGUCCCGGUGGAAUGUUCAGAGGUGGCCGUGGUGGAGACAAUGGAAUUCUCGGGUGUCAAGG	0.0348
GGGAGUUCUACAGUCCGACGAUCUCAAGUCCUGUGCUACACAUCGUAUGUACCGAAUCGGAAAGGAAAGGGGAAAGGAAAGUAUUAUGUUACGCCGUUCGGAUCUGCACUUCCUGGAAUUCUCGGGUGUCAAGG	-0.439

Study 2
Target: Phosphate system positive regulatory protein PHO4, full length, GST-tagged (PHO4, Saccharomyces cerevisiae, UniProt P07270, residues 1-312)
Method: competition protein-binding microarray
Form: double-stranded DNA, one strand shown
Matrix: in vitro
Concentration: 2 µM
Setting: whole 60-bp probe, lowest competitor level
Together with: Cbf1 competitor, 0.05 µM
Direction: higher = stronger binding
Target sequence (chain): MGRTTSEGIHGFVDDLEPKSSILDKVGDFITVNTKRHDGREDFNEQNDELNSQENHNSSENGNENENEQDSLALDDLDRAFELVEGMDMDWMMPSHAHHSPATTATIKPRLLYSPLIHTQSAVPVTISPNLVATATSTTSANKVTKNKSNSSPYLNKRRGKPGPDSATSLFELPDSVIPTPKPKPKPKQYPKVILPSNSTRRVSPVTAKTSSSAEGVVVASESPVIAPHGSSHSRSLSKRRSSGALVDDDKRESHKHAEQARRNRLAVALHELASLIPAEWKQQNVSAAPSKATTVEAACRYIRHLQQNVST
Oligonucleotide	fluorescence intensity
TGTTCCATTCAATGAAACATGTCAATTCTCTGAGTGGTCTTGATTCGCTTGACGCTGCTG	5360 a.u.
CTTCTGTAAATTTGGTACGTGGGTGGACGCGCCCCGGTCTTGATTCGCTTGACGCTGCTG	8440 a.u.
CTTTCCCGATCTTGGACTGTGGGTGTAGCACATTTGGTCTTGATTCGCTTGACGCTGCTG	4850 a.u.
TCCCTGTGGATCCATCACGTGTGGATTAGGAGCAAAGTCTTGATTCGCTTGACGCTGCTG	14000 a.u.
GTCCTGGCACCATCAATCGTGCTTTGACCAGTATGTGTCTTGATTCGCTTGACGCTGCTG	7140 a.u.
ATTCTGGGATGCCCTGTCGTGGGTACAGTTGCCACAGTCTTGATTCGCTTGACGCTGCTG	6350 a.u.
AAAGCGGTAATTTGGCAAGTGGGTGCAGATATCTATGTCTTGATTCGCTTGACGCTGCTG	4270 a.u.
AAATTTTTACTAGGACACGTGTAACACAGCTCCATGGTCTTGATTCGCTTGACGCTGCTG	17000 a.u.
AGAAGGATGAATTGGAACGTGTTGGCAAGTCTAACCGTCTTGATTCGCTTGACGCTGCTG	11700 a.u.
TGCGCAACAACTTGGTGGGTGGGTGTATGTCTAGAAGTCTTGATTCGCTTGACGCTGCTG	5200 a.u.
AAATTACTAAGTTGGTGTGTGGGTGACGCCGTATGAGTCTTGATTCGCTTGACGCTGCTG	5850 a.u.
CTTCTGTAAATTTTTCACGTGGTGTGAAGCGCCCCGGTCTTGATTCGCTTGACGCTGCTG	12800 a.u.
CATACCCAACCTTGTCTGGTGGGTGAAGATATTTGTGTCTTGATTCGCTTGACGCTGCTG	3510 a.u.
CGGGGTTAAGTTTGTCAGGTGGGTGGCTTGCAGCAGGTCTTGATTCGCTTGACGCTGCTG	6280 a.u.
CAATAATATCATAATCATATGACGGTTCTTCGTCAAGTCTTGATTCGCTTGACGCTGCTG	3790 a.u.
GGGTAAGGTCTTTTTCGCGTGCTTTTATTTTATTCAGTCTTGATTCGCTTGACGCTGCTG	7700 a.u.
TTATTTGGTGTTTCTTTCGTGCCGATAGGTTTCGAAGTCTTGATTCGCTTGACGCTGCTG	4210 a.u.
CATCCCATTGCAAGACCCACGTGAAGGAGCGTCTTCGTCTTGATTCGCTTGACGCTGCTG	16300 a.u.

Study 3
Target: Prothrombin, mature alpha-thrombin (F2, Homo sapiens, UniProt P00734)
Method: aptamer microarray, sandwich
Form: DNA with 2'F-ANA
Matrix: in vitro
Concentration: 200 nM
Setting: whole 15-mer aptamer, many near background
Together with: Cy3 exosite-II aptamer, 400 nM
Direction: higher = stronger binding
Oligonucleotide: GGTTGGTGTGGTTGG
Modification	mean fluorescence intensity
2'F-ANA at 1 2 3 4 5 6 10 13 14	46.3 a.u.
2'F-ANA at 1 2 3 4 5 8 10 11 13	48.2 a.u.
2'F-ANA at 2 3 5 7 10 11 12 14	50.3 a.u.
2'F-ANA at 1 4 5 10 14 15	51.8 a.u.
2'F-ANA at 1 3 4 5 8 11 12 14	50 a.u.
2'F-ANA at 2 3 5 6 7 8 12 13	169 a.u.
2'F-ANA at 1 2 4 5 9 10 11 13	47.9 a.u.
2'F-ANA at 3 7 9 12 14	757 a.u.
2'F-ANA at 1 2 3 4 5 6 10 11	66.8 a.u.
2'F-ANA at 1 2 3 7 11 12 13 14 15	89.5 a.u.
2'F-ANA at 1 7 8 10 12 13	91.3 a.u.
2'F-ANA at 2 4 6 7 8 10 11 12 13 14	83.9 a.u.
2'F-ANA at 1 3 6 7 9 10 11 12 15	132 a.u.
2'F-ANA at 1 4 6 7 9 10 12 13 15	233 a.u.
2'F-ANA at 2 3 4 5 7 8 13	94.2 a.u.
2'F-ANA at 1 4 5 7 9 10 11 12 15	59.5 a.u.
2'F-ANA at 1 3 4 7 8 9 10 11 13	59 a.u.
2'F-ANA at 5 6 7 10 12 13 14	46.6 a.u.
2'F-ANA at 1 2 3 6 10 12 14 15	228 a.u.
2'F-ANA at 1 2 3 4 5 10 13 14	51 a.u.
2'F-ANA at 1 2 4 7 8 10 12 15	65.4 a.u.
2'F-ANA at 1 2 4 5 6 9 13	49.8 a.u.
2'F-ANA at 1 3 4 5 7 10 11 12 13 15	47.3 a.u.
2'F-ANA at 1 5 6 10 11 12 13 14 15	49.3 a.u.
2'F-ANA at 2 3 4 7 9 10 14	182 a.u.

Study 4
Target: Histone acetyltransferase KAT6A, winged helix 2, GST fusion (KAT6A, Homo sapiens, UniProt Q92794, residues 85-181)
Method: protein binding microarray
Form: double-stranded DNA, one strand shown
Matrix: in vitro
Concentration: not given
Setting: 8-mer, flanks averaged, mean of 2 arrays, mostly near background
Relative to: not given
Direction: higher = stronger binding
Construct (chain): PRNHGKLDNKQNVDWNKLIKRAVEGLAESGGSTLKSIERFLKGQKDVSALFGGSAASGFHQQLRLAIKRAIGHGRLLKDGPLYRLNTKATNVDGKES
Oligonucleotide	E-score
GCATCGTA	0.093
ACCGAGCT	0.0826
AGGCCAGG	0.0493
AAACAATT	-0.0708
ATAGCTAA	-0.189
AAGGAGTC	-0.113
TGCCCGAA	0.0792
CTGTGGGC	0.138
AACATCGT	-0.00675
CTACACCA	-0.0249
CCGCCCGC	0.275
CAGTGCCC	0.0354
ACCGCCAT	0.113
GGGAAGAA	-0.0312
CACAAAGC	0.146
CAATGCAG	0.126
GCGGAGAC	0.213
AAAAAATC	0.0507
ACCGGAAC	-0.0103
CCTCCCAC	0.133
ATAAACCA	-0.0429
ACGTACGT	-0.334

Excerpt of the above (study 4):
Oligonucleotide	E-score
ACCGAGCT	0.0826
CCTCCCAC	0.133
GCATCGTA	0.093
ACGTACGT	-0.334
ATAGCTAA	-0.189
CACAAAGC	0.146
ACCGGAAC	-0.0103
AACATCGT	-0.00675
CCGCCCGC	0.275
AGGCCAGG	0.0493
ACCGCCAT	0.113
CTGTGGGC	0.138
